Measured values collected from several papers.
Protocols differ between the studies behind these lines. Values joined by “and” are separate records of one study, mostly repeats; a detail may differ. ± gives the spread as reported. Where no end group is shown, it is not given here. The star is where a group is joined.
ESR1: Estrogen receptor (ESR1, Homo sapiens, UniProt P03372)
Kelch domain-containing protein 2: Kelch domain-containing protein 2 (UniProt Q9Y2U9)
CASP7: Caspase-7 (CASP7, Homo sapiens, UniProt P55210)
OPRM1: Mu-type opioid receptor (OPRM1, Homo sapiens, UniProt P35372)
CNR2: Cannabinoid receptor 2 (CNR2, Homo sapiens, UniProt P34972)
CSK: Tyrosine-protein kinase CSK (CSK, Homo sapiens, UniProt P41240)

Oc1cc(-c2cc(Br)c(-c3ccc(F)c(O)c3)[se]2)ccc1F — efficacy (ESR1; antagonist; HEK293T; highest tested concentration, with: estradiol 10 nM; baseline: estradiol alone): 127 ± 42%
O[C@@H](CN1CC[C@H](CCOC(c2ccccc2)c2ccccc2)[C@@H](O)C1)c1ccc(F)cc1 — Ki (Sodium-dependent serotonin transporter (Slc6a4, Rattus norvegicus, UniProt P31652); serotonin uptake, inhibitor; rat cerebral cortex; with: [3H]5-HT): 402 nM
N[C@@H](Cc1ccc(O)c(I)c1)C(=O)O — kcat (Iodotyrosine deiodinase (Haliscomenobacter hydrossis, UniProt F4KU78); substrate; pH 7.4): 0.58 ± 0.005 s⁻¹
COc1ncc(C[n+]2csc(CCOP(=O)(O)OP(=O)(O)O)c2C)c(N)n1 — enzyme activity (sucA (Escherichia coli, UniProt P0AFG3); NADH formation; 0.20 mM): 18.1 µmol/min/mg E1o and 13.2 µmol/min/mg E1o
C[C@H](NC(=O)[C@H](Cc1ccc(O)cc1)NC(=O)[C@H](Cc1ccccc1)NC(=O)[C@H](CCC(=O)O)NC(=O)[C@H](CCC(=O)O)NC(=O)[C@H](CCC(N)=O)NC(=O)[C@H](CCCCN)NC(=O)[C@@H](NS(=O)(=O)c1cccc2c(N(C)C)cccc12)[C@@H](C)O)C(=O)O — binding affinity fold change (Rho guanine nucleotide exchange factor TIAM1, PDZ domain (TIAM1, Homo sapiens, UniProt Q13009); fluorescence anisotropy; concentration not given, dansylated peptide; baseline: model peptide Kd over peptide Kd): 4.2
O=C(C(=O)c1ccccc1)c1ccccc1 — remaining activity (Liver carboxylesterase 1 (CES1, Homo sapiens, UniProt P23141); irreversible inhibitor; 5× IC50 or 200 µM, 1 h, preincubation then inhibitor removal, with: o-nitrophenyl acetate substrate): 0%
CN1[C@@H]2CC[C@H]1C[C@@H](OC(c1ccccc1)c1ccccc1)C2 — affinity loss (Sodium-dependent dopamine transporter (SLC6A3, Homo sapiens, UniProt Q01959, A479V/A480V); [3H]CFT competition; COS-7 transfected; A479V-A480V mutant; baseline: mutant over wild type): ~20 fold
TDRQGNALGWATAGG — fraction of protein bound (Kelch domain-containing protein 2; native mass spectrometry; peptide, 200 mM ammonium acetate; 20 µM Kelch domain-containing protein 2, pH 7; baseline: total Kelch domain-containing protein 2 signal): 0.2%
TLDIFRN (disulfide (positions not given here)) (cyclic, disulfide) — binding titer (HIV-1 neutralising antibody 4E10; phage binding, M13 phage ELISA; concentration not given; lower = stronger binding): 8.8e+06 M13/mL
Oc1ccc(-c2cc(Br)c(-c3ccc(O)cc3)[se]2)cc1 — efficacy (Estrogen receptor beta (ESR2, Homo sapiens, UniProt Q92731); antagonist; HEK293T; highest tested concentration, 24 h, with: estradiol 10 nM; baseline: estradiol alone): 75 ± 4%
Ac-LDEVD-pNA (N-acetyl, C-pNA; pNA = O=[N+]([O-])c1ccc(N*)cc1) — kcat (CASP7; substrate hydrolysis, substrate, colorimetric; pH 7.5): 0.967 ± 0.05 s⁻¹
RLGFYGCDLQD — conversion (Uncharacterized protein MJ1094 (Methanocaldococcus jannaschii, UniProt Q58494); substrate, MALDI-TOF-MS; peptide; pH 9.0, no added anion, with: ATP): ~50%
QSYNWFDHTRWI — binding titer (HIV-1 neutralising antibody 4E10; phage binding, M13 phage ELISA; peptide; concentration not given; lower = stronger binding): 1.7e+08 M13/mL
COc1ccccc1Oc1ccc(C(=O)N[C@H](CN2CCN(c3cccc(O)c3)[C@@H](C)C2)C(C)C)cc1 — Ke (OPRM1; antagonist; CHO; with: DAMGO): 127 ± 78 nM
Nc1nc2c(ncn2[C@H]2C[C@H](O)[C@@H](COP(=O)(O)OP(=O)(O)OP(=O)(O)O)O2)c(=O)[nH]1 — catalytic efficiency decrease (Gag-Pol polyprotein, reverse transcriptase (gag-pol, Human immunodeficiency virus 1, UniProt P03366, M783V/Q690N); substrate; Q91N/M184V mutant range with Q91N, with: poly(rC) template; baseline: wild type): 5 to 10 fold
NC(=O)c1cccc(CNC(=O)c2nn(Cc3ccc(F)cc3)c3ccccc23)c1 — Emax (CNR2; calcium mobilization, agonist; CHO-K1 expressing Gαq16; baseline: CP55,940 maximum): 32 ± 2%
O=C(O)c1ccccc1-c1cccnc1 — ΔTm (pqsE (Pseudomonas aeruginosa, UniProt P20581, E182A); thermal stability, DSF): 10 °C
NCCCC(=O)O — fluorination plot slope (Drosophila RDL receptor residue 254; log EC50 vs cation-π binding): -0.11
CC(=O)OCc1ccc(C=O)o1 — P50 change (Hemoglobin subunit alpha, with sickle beta chain (HBA1, Homo sapiens, UniProt P69905); oxygen affinity; sickle red cell lysate; 2000 µM; baseline: untreated): 44.6 ± 11.9%
Ac-QDEVD-pNA (N-acetyl, C-pNA; pNA = O=[N+]([O-])c1ccc(N*)cc1) — kcat (CASP7; substrate hydrolysis, substrate, colorimetric; pH 7.5): 1.05 ± 0.05 s⁻¹
SHPQFEKGGGSGGGSGG — fraction of protein bound (Kelch domain-containing protein 2; native mass spectrometry; peptide, 200 mM ammonium acetate; 20 µM Kelch domain-containing protein 2, pH 7; baseline: total Kelch domain-containing protein 2 signal): 0.3%
CSc1ccc(Nc2ccc3c(c2)C(c2ccccc2F)=NC(C)C(=O)N3)cc1 (centres unmarked) — inhibition (Alpha-2A adrenergic receptor (ADRA2A, Homo sapiens, UniProt P08913); ligand displacement, radioligand; 10 µM): 65%
CCCCN(CCCC)CC(O)c1cc(Cl)cc2c1-c1ccc(Cl)cc1/C2=C/c1ccc(Cl)cc1 (centres unmarked) — inhibition of binding (CRT (Plasmodium falciparum, UniProt W7FI62); scintillation proximity; nanodiscs; 10 µM, with: [3H]-chloroquine and [3H]-piperaquine): no inhibition
Oc1ccc(-c2ccc(-c3ccc(O)cc3Cl)[se]2)c(Cl)c1 — efficacy (ESR1; antagonist; HEK293T; highest tested concentration, with: estradiol 10 nM; baseline: estradiol alone): 73 ± 8%
O=C(Cc1cccc(Cl)c1)NC1CCOC1=O (centres unmarked) — activation (Transcriptional activator protein LasR (lasR, Pseudomonas aeruginosa, UniProt P25084); reporter gene, agonist; Escherichia coli JLD271/pJN105L/pSC11; 100 µM; baseline: OdDHL 100 µM): 30%
SQLIDKIAAGA — fraction of protein bound (Kelch domain-containing protein 2; native mass spectrometry; peptide, 200 mM ammonium acetate; 20 µM Kelch domain-containing protein 2, pH 7; baseline: total Kelch domain-containing protein 2 signal): 0.1%
EEEPEYAEIIVLP — kcat/Km (CSK; substrate, coupled enzyme; peptide; pH 7.4, room temperature, with: 1 mM ATP, 5 mM MnCl2): 490 M⁻¹ s⁻¹
Oc1c(Cl)cc(-c2ccc(Cl)cc2Cl)cc1Cl — detection limit (Aequorin-1 (Aequorea victoria, UniProt P07164, C152S/C159S/C187S); aequorin bioluminescence, inhibitor; 2 h, with: coelenterazine): 3.3 µM
CC(C)C[C@@H](C=O)NC(=O)[C@H](CC(C)C)NC(=O)[C@H](CC(C)C)NC(=O)OCc1ccccc1 — IDO1 degradation (Indoleamine 2,3-dioxygenase 1 (IDO1, Homo sapiens, UniProt P14902); inhibitor, western blot; HeLa; 1 µM, 2 h pretreatment, then 24 h, with: IFN-γ 5 ng/mL plus degrader 5 µM): inhibited
Nc1nnc(S)s1 — remaining activity (Peptide deformylase (def, Escherichia coli, UniProt P0A6K3); 500 µM, over 2 days, stock in acetonitrile; baseline: control): 96%
C[C@]12C[C@H](c3ccc(OCCN=[N+]=[N-])cc3)[C@@H]3c4ccc(O)cc4CC[C@H]3[C@@H]1CC[C@@H]2O — relative binding affinity (Estrogen receptor, ligand-binding domain (ESR1, Homo sapiens, UniProt P03372); radioligand competition; concentration not given, overnight, room temperature, ligand-binding domain, with: [3H]estradiol; baseline: estradiol): 26 to 39%
DDESIYINIPDGE — kcat/Km (CSK; substrate, coupled enzyme; peptide; pH 7.4, room temperature, with: 1 mM ATP, 5 mM MnCl2): 180 M⁻¹ s⁻¹
Nc1ncnc2c1ncn2[C@@H]1O[C@H](COP(=O)(O)OP(=O)(O)O)[C@@H](O)[C@H]1O — potency shift (P2Y purinoceptor 1 (Meleagris gallopavo, UniProt P49652, F108R); calcium mobilisation, agonist; 1321N1 transfected; baseline: FGD/RGD mutant over wild type): > 30 fold
CC(C)[C@@H](CN1CCN(c2cccc(O)c2)[C@@H](C)C1)NC(=O)c1ccc(Oc2ccccc2)cc1 — Ke (OPRM1; antagonist; CHO; with: DAMGO): 51 nM
Nc1ncnc2c1ncn2[C@@H]1O[C@H](CO[P@](=O)(O)O[P@](=O)(O)O[P@@](=O)(O)S)[C@@H](O)[C@H]1O — fluorescence ratio (matB (Rhodopseudomonas palustris, UniProt Q6ND88, C106A/K488A/Q457C/R286C); nucleotide binding; 0.5 µM protein, pH 7.0, 20 °C, 10 mM MgCl2; baseline: saturating ligand over no ligand): 1.9 ± 0.1
CC12CC3CC1(C)C1(C)CC3(CN)CC21C.Cl — current recovery after washout (Glutamate NMDA receptor; Grin1/Grin2a (Grin1/Grin2a, Rattus norvegicus, UniProt P35439+Q00959); NMDA current unblock, whole-cell patch clamp; tsA201 cells; 10 µM, holding potential -60 mV, with: 100 µM NMDA plus 10 µM glycine): 90.6 ± 3.5%
FEDSIYADIFIEE — kcat/Km (CSK; substrate, coupled enzyme; peptide; pH 7.4, room temperature, with: 1 mM ATP, 5 mM MnCl2): 320 M⁻¹ s⁻¹
CC=O — V/K decrease (ADH1 (Saccharomyces cerevisiae, UniProt P00330, T46G); reduction, substrate; baseline: wild type over mutant): 8400 fold
AWSHPQFEKGGGSGGGSGG — fraction of protein bound (Kelch domain-containing protein 2; native mass spectrometry; peptide, 200 mM ammonium acetate; 20 µM Kelch domain-containing protein 2, pH 7; baseline: total Kelch domain-containing protein 2 signal): 0.8%
CC(C)[C@H](NC(=O)[C@H](CC(=O)O)NC(=O)[C@@H](NC(=O)[C@H](CCC(=O)O)NC(=O)[C@@H](NC(=O)[C@H](C)NC(=O)[C@H](CCCCN)NC(=O)[C@H](C)NC(=O)[C@H](CC(N)=O)NC(=O)[C@H](CO)NC(=O)[C@H](CS)NC(=O)[C@H](CC(N)=O)NC(=O)[C@H](CC(N)=O)NC(=O)[C@H](CCCCN)NC(=O)[C@H](CC(=O)O)NC(=O)CNC(=O)[C@H](CO)NC(=O)CNC(=O)[C@H](CO)NC(=O)CCCC[C@@H]1SC[C@@H]2NC(=O)N[C@@H]21)C(C)C)[C@@H](C)O)C(=O)O — koff (Disks large homolog 1, PDZ1-2 domains (DLG1, Homo sapiens, UniProt Q12959); binding, surface plasmon resonance; with: immobilized Kv1.4 peptide): 0.0135 s⁻¹
CCOc1ccccc1NC(=O)c1ccccc1NS(=O)(=O)C1CC1 — activity (Mas-related G-protein coupled receptor member X2 (MRGPRX2, Homo sapiens, UniProt Q96LB1); receptor activation, antagonist; HEK293 expressing MRGPRX2; concentration not given, with: PAMP): inactive
O=C1C(O)=C([C@H]2CC[C@H](c3ccc(Cl)cc3)CC2)C(=O)c2ccccc21 — cytochrome b reduction (COB/RIP1, center P (Saccharomyces cerevisiae, UniProt P00163+P08067); center P first turnover; concentration not given, preincubated with oxidized enzyme, with: quinol): no inhibition
Oc1ccc(-c2c[se]cc2-c2ccc(O)c(F)c2)cc1F — efficacy (ESR1; antagonist; HEK293T; highest tested concentration, with: estradiol 10 nM; baseline: estradiol alone): 33 ± 6%
COc1ccccc1N1CCN(CCN(C(=O)c2ccc(F)cc2)c2ccccn2)CC1 — efficacy (GPR32 (Homo sapiens, UniProt O75388); β-arrestin recruitment, agonist, PathHunter; CHO cells expressing GPR32; concentration not given; baseline: vehicle): 20.5%
NC(=O)CN1CCC[C@@H](CNC(=O)c2nn(Cc3ccc(F)cc3)c3ccccc23)C1 — Emax (CNR2; calcium mobilization, agonist; CHO-K1 expressing Gαq16; baseline: CP55,940 maximum): 41 ± 3%
CC(C)c1ccc(O)cc1 — Vmax (UDP-glucuronosyltransferase 1A9 (UGT1A9, Homo sapiens, UniProt O60656); substrate; pH 7.4, 37 °C): 2180 pmol/mg/min
Oc1cc(-c2ccc(-c3ccc(F)c(O)c3)[se]2)ccc1F — efficacy (ESR1; antagonist; HEK293T; highest tested concentration, with: estradiol 10 nM; baseline: estradiol alone): 68 ± 2%

For quick reference, copied from above:
TLDIFRN (disulfide (positions not given here)) (cyclic, disulfide) — binding titer (HIV-1 neutralising antibody 4E10; phage binding, M13 phage ELISA; concentration not given; lower = stronger binding): 8.8e+06 M13/mL
Oc1ccc(-c2cc(Br)c(-c3ccc(O)cc3)[se]2)cc1 — efficacy (Estrogen receptor beta (ESR2, Homo sapiens, UniProt Q92731); antagonist; HEK293T; highest tested concentration, 24 h, with: estradiol 10 nM; baseline: estradiol alone): 75 ± 4%
Ac-LDEVD-pNA (N-acetyl, C-pNA; pNA = O=[N+]([O-])c1ccc(N*)cc1) — kcat (CASP7; substrate hydrolysis, substrate, colorimetric; pH 7.5): 0.967 ± 0.05 s⁻¹
